Measurements collected from several papers.
Each line is one published result; not all experiments were run side by side. Numbers after ± are the reported error.
Organism: Trypanosoma cruzi

| Compound | assay | system | setting | EC50 |
| --- | --- | --- | --- | --- |
| O=C1C=CS(=O)(=O)c2ccc(Cl)cc21 | intracellular amastigote growth | U-937, Tulahuen, β-galactosidase transfected | 72 h | 1070 µM |
| CCOC(=O)c1csc(NN=Cc2ccccc2Cl)n1 | parasite growth | – | 24 h, trypomastigote | 12.5 µM |
| O=C1C(Cc2ccccc2Cl)=CS(=O)(=O)c2ccccc21 | intracellular amastigote growth | U-937, Tulahuen, β-galactosidase transfected | 72 h | 229 µM |
| COC(c1ccc2ccccc2c1)(c1ccc2c(c1)c(-c1cccc(Cl)c1)cc(=O)n2C)c1cncn1C (stereo not shown) | parasite growth | NIH3T3 | intracellular, amastigote | 0.002 µM |
| N#CSCCOc1ccc2ccccc2c1 | parasite growth | – | intracellular, amastigote | > 10 µM |
| O=C(O)c1ccc(S(=O)(=O)N2CCN(c3ccc(C(=O)N[C@H](Cc4c[nH]c5ccccc45)C(=O)Nc4ccncc4)c(F)c3)CC2)cc1 | – | mouse C2C12 myoblasts, CA-I/72 | 72 h | > 10 µM |
| O=C1C=CS(=O)(=O)c2ccccc21 | intracellular amastigote growth | U-937, Tulahuen, β-galactosidase transfected | 72 h | 103 µM |
| N#CSCCOc1cccc(Oc2ccccc2F)c1 | amastigote growth | tdTomato labelled | intracellular amastigotes | 7 µM |
| CN(C)C(=O)c1ccc(NCc2cncn2Cc2ccc(-c3ccccc3)cc2)cc1-c1ccccc1 | parasite growth | mouse Fibroblast | intracellular, amastigote | 0.014 µM |
| O=C1C(Cc2cccs2)=CS(=O)(=O)c2ccccc21 | intracellular amastigote growth | U-937, Tulahuen, β-galactosidase transfected | 72 h | 116 µM |
| CC[C@@H]([C@H](C)O)n1ncn(-c2ccc(N3CCN(c4ccc(OC[C@@H]5CO[C@@](Cn6cncn6)(c6ccc(F)cc6F)C5)cc4)CC3)cc2)c1=O | parasite growth | NIH3T3 | intracellular, amastigote | 0.0003 µM |
| O=C1C=CS(=O)(=O)c2c(Br)cccc21 | intracellular amastigote growth | U-937, Tulahuen, β-galactosidase transfected | 72 h | 354 µM |
| c1ccc(-c2ccc(Cn3cncc3CNc3ccc(N4CCCC4)c(-c4ccccc4)c3)cc2)cc1 | parasite growth | mouse Fibroblast | intracellular, amastigote | 0.041 µM |
| CCOC(=O)c1csc(NN=Cc2cccc(Br)c2)n1 | parasite growth | – | 24 h, trypomastigote | 46.7 µM |
| O=C(N[C@H](Cc1c[nH]c2ccccc12)C(=O)Nc1ccncc1)c1ccc(N2CCN(S(=O)(=O)c3cccnc3)CC2)cc1F | – | mouse C2C12 myoblasts, CA-I/72 | 72 h | 2.4 ± 0.8 µM |
| N/C(S)=N/N=C/c1ccc(-c2ccc(Cl)cc2)o1 | parasite growth, image-based | C2C12, CA-I/72 | 72 h | < 1 µM |

| Compound | assay | system | setting | EC50 |
| --- | --- | --- | --- | --- |
| N#CSCCOc1ccc(Oc2ccncc2)cc1 | parasite growth | – | intracellular, amastigote | > 10 µM |
| CC1=CC(=O)c2ccccc2S1(=O)=O | intracellular amastigote growth | U-937, Tulahuen, β-galactosidase transfected | 72 h | 402 µM |
| O=C(c1ccc(NCc2cncn2Cc2ccc(-c3ccccc3)cc2)cc1-c1ccccc1)N1CCCCC1 | parasite growth | mouse Fibroblast | intracellular, amastigote | 0.039 µM |
| CCOC(=O)CC1SC(=NN=Cc2ccc(OC)cc2)NC1=O (stereo not shown) | parasite growth | – | 24 h, trypomastigote | 12.7 µM |
| O=C(Cn1ccnc1[N+](=O)[O-])NCc1ccccc1 | parasite growth, imaging | U2OS | 72 h, intracellular, amastigote | 2.5 µM |
| CCOC(=O)CC1SC(=NN=Cc2ccc(O)c(OC)c2)NC1=O (stereo not shown) | parasite growth | – | 24 h, trypomastigote | 35.5 µM |
| N#Cc1ccc(S(=O)(=O)N2CCN(c3ccc(C(=O)N[C@H](Cc4c[nH]c5ccccc45)C(=O)Nc4ccncc4)c(F)c3)CC2)cc1 | – | mouse C2C12 myoblasts, CA-I/72 | 72 h | 0.0026 ± 0.0005 µM |
| CCOC(=O)c1csc(NN=Cc2ccco2)n1 | parasite growth | – | 24 h, trypomastigote | 2.75 µM |
| O=C1C=CS(=O)(=O)c2ccc(F)cc21 | intracellular amastigote growth | U-937, Tulahuen, β-galactosidase transfected | 72 h | 1210 µM |
| CCOC(=O)CC1SC(=NN=C2CCCc3ccccc32)NC1=O (stereo not shown) | parasite growth | – | 24 h, trypomastigote | 27.9 µM |
| COc1ccc(NCc2cncn2Cc2ccc(-c3ccccc3)cc2)cc1-c1ccccc1 | parasite growth | mouse Fibroblast | intracellular, amastigote | 0.009 µM |
| CCOC(=O)CC1SC(=NN=Cc2ccccc2OC)NC1=O (stereo not shown) | parasite growth | – | 24 h, trypomastigote | 24.2 µM |
| N#Cc1ccc(NCc2cncn2Cc2ccc(-c3ccccc3)cc2)cc1-c1ccccc1 | parasite growth | mouse Fibroblast | intracellular, amastigote | 0.0018 µM |
| CS(=O)(=O)N1CCN(c2ccc(C(=O)N[C@H](Cc3c[nH]c4ccccc34)C(=O)Nc3ccncc3)c(F)c2)CC1 | – | mouse C2C12 myoblasts, CA-I/72 | 72 h | > 10 µM |
| CCOC(=O)CC1SC(=NN=Cc2cccc(Br)c2)NC1=O (stereo not shown) | parasite growth | – | 24 h, trypomastigote | 18.2 µM |

For quick reference, copied from above:
| Compound | assay | system | setting | EC50 |
| --- | --- | --- | --- | --- |
| CCOC(=O)c1csc(NN=Cc2cccc(Br)c2)n1 | parasite growth | – | 24 h, trypomastigote | 46.7 µM |
| O=C(N[C@H](Cc1c[nH]c2ccccc12)C(=O)Nc1ccncc1)c1ccc(N2CCN(S(=O)(=O)c3cccnc3)CC2)cc1F | – | mouse C2C12 myoblasts, CA-I/72 | 72 h | 2.4 ± 0.8 µM |
| N/C(S)=N/N=C/c1ccc(-c2ccc(Cl)cc2)o1 | parasite growth, image-based | C2C12, CA-I/72 | 72 h | < 1 µM |
| N#CSCCOc1ccc(Oc2ccncc2)cc1 | parasite growth | – | intracellular, amastigote | > 10 µM |
| CC1=CC(=O)c2ccccc2S1(=O)=O | intracellular amastigote growth | U-937, Tulahuen, β-galactosidase transfected | 72 h | 402 µM |
